Results gathered from unrelated publications.
Lines come from different studies, so protocols differ. Values joined by “and” are separate records of one study, mostly repeats; a detail may differ.
CDK3: Cyclin-dependent kinase 3 (CDK3, Homo sapiens, UniProt Q00526)
CDK3 with cyclin E: Cyclin-dependent kinase 3, with cyclin E (CDK3, Homo sapiens, UniProt Q00526)

| SMILES | target | assay | conditions | how to read | quantity | value |
| --- | --- | --- | --- | --- | --- | --- |
| CNC(=O)C1CCN(c2cc(C)c(F)cc2NC(=O)c2ccc(-c3cc(O)ccc3C)c(C)c2)CC1 | CDK3 | binding, competition with immobilised ligand | 1 µM |  | remaining binding | 100% |
| O=C=[N][Ru-4]123([n]4c5ccc(O)cc5c5c6c(c7cc(F)c[n+]1c7c54)C(=O)NC6=O)[S+]1CC[S+]2CC[S+]3CC1 (stereo not drawn) | CDK3 with cyclin E | enzyme activity | 100 nM, human enzyme, added: 10 µM ATP | relative to: untreated | remaining activity | 119% |
| Cc1cc(C)nc(Nc2ccc([C@@H]3CCCN(C(=O)/C=C/c4c(C)nn(C)c4C)C3)nc2)n1 | CDK3 | enzyme activity, inhibitor, ADP detection | 1 µM |  | activity vs control | 102% |
| Nc1ncc2c(n1)-c1c([nH]c3ccc(C4=CCOCC4)cc13)CCC2 | CDK3 | binding, competition with immobilised ligand | 1 µM |  | remaining binding | 98% |
| Cc1cnc2nc1Nc1cccc(c1)COC/C=C/COCc1cc(ccc1OCCN1CCOCC1)N2 | CDK3 | cell-free assay | 0.1 µM |  | remaining signal | 96% |
| COc1c(Cl)cccc1Nc1c(-c2ccncc2C#C[C@@]2(C)CCCN2C(=O)/C=C/CN(C)C)[nH]c2c1C(=O)NCC2 | CDK3 | binding, competition with immobilised ligand | 3 µM |  | remaining binding | 93% |
| Cc1cccc(O[C@H]2CCC[C@@H](C(C)CNCc3ccncc3)C2)c1 (relative stereo) | CDK3 with cyclin E | kinase activity, kinome panel screening | 10 µM |  | inhibition | -7% |
| CN1C[C@@H](c2c[nH]c3cc(Br)ccc23)NC[C@@H]1c1c[nH]c2cc(Br)ccc12 | Cyclin-dependent kinase 3, with cyclin C (CDK3, Homo sapiens, UniProt Q00526) | enzyme activity, inhibitor | 10 µM |  | remaining activity | 104% |
| NC(=O)C[C@H]1CCc2sc3ncnc(O[C@H]4CC[C@H](N5CCOCC5)CC4)c3c21 | CDK3 with cyclin E | enzyme activity, inhibitor | 10 µM |  | inhibition | 2% |
| CN1CCN(Cc2ccc(NC(=O)c3cccc(C#Cc4cnc(N)c5ncccc45)c3)cc2C(F)(F)F)CC1 | CDK3 | cell-free assay, competition with immobilised ligand | 50 nM |  | remaining binding | 100% |
| CCn1cc(C(=O)O)c(=O)c2c(N)c(F)c(NC3CCCCC3)cc21 | Cyclin-dependent kinase 3, with cyclin E1 (CDK3, Homo sapiens, UniProt Q00526) | kinase activity | 0.1 µM, added: ATP at Km |  | inhibition | 16.5% |
| C=CC(=O)Nc1cccc(-c2cnc3[nH]cc(C(=O)NC(C)(C)C)c3n2)c1 | CDK3 with cyclin E | enzyme activity, inhibitor | 0.1 µM |  | inhibition | 12% |
| CC(=O)N1c2ccc(-c3ccc(CNC(=O)c4cn5cc(-c6cnc(N)nc6)nc(N6CCOCC6)c5n4)cc3)cc2CC[C@@H]1C | CDK3 | KINOMEscan | 10 µM |  | remaining binding | 100% |
| COc1ccc(NC(=O)Nc2ccc3c(c2)C(=O)N(C(C)CO)CC(C)C(CN(C)Cc2ccc4c(c2)OCO4)O3)cc1 (stereo not drawn) | CDK3 | binding, competition with immobilised ligand | 10 µM |  | remaining binding | 76% |
| COc1ccc(C(=O)/C=C/c2ccccc2-c2c[nH]c3ccc(C#N)cc23)c(O)c1 | CDK3 with cyclin E | enzyme activity, inhibitor | 20 µM |  | inhibition | 7% |
| Cc1nn(C)c(C)c1/C=C/C(=O)N1CCC[C@H](Cc2ccc(Nc3ccccn3)nn2)C1 | CDK3 | enzyme activity, inhibitor, ADP detection | 1 µM |  | activity vs control | 91% |
| C=CC(=O)N1CCCC(n2c(=O)c3ncccc3n(Cc3ccc(Oc4ccccc4)cc3)c2=O)C1 (stereo not drawn) | CDK3 | cell-free assay, competition with immobilised ligand | 1 µM |  | remaining binding | 95% |
| CNS(=O)(=O)Nc1nccc(Cc2c(C)c3ccc(Oc4ncccc4F)cc3oc2=O)c1F | CDK3 | binding, competition with immobilised ligand | 10 µM |  | remaining binding | 100% |
| C=CC(=O)N1CCc2ccc(-n3c(=O)ccc4cnc5ccc(-c6cnn(C)c6)cc5c43)cc21 | CDK3 | KINOMEscan | 1 µM | relative to: DMSO control | remaining binding | 100% |
| CNC(=O)C[C@H](Cc1ccc(C#N)cc1)NC(=O)c1cc(-c2ccc(CN[C@H](C)c3ccc(C)cc3)o2)ccc1Cl | CDK3 with cyclin E | enzyme activity, inhibitor | 1 µM |  | activity vs control | 107% |
| COCC12C(=O)NC3C4(C(OC)CC1O)C1CC5(O)C(OC)C(O)C(OC(C)=O)(C1C5OC(=O)c1ccccc1)C3(O)C(OC)C24 (stereo not drawn) | CDK3 with cyclin E | kinase activity, inhibitor, ProQinase kinase profiling | 25 µM | relative to: control | remaining activity | 89% and 109% |

A few entries again:
| SMILES | target | assay | conditions | how to read | quantity | value |
| --- | --- | --- | --- | --- | --- | --- |
| CN1CCN(Cc2ccc(NC(=O)c3cccc(C#Cc4cnc(N)c5ncccc45)c3)cc2C(F)(F)F)CC1 | CDK3 | cell-free assay, competition with immobilised ligand | 50 nM |  | remaining binding | 100% |
| CC(=O)N1c2ccc(-c3ccc(CNC(=O)c4cn5cc(-c6cnc(N)nc6)nc(N6CCOCC6)c5n4)cc3)cc2CC[C@@H]1C | CDK3 | KINOMEscan | 10 µM |  | remaining binding | 100% |
